Measurements of several laboratories.
A part holds a random share of what one study measured. Changes are numbered by the printed parent chain.

Block 1 — method: protein-binding microarray; molecule type: double-stranded DNA, one strand shown; medium: in vitro; tested at: not given; direction: higher = stronger binding
Target: Transcriptional repressor CTCF (CTCF, Homo sapiens, UniProt P49711, residues 1-727, full length assumed)
Setting: k-mer, scored over probes, only values ≥0.25
Residues (chain): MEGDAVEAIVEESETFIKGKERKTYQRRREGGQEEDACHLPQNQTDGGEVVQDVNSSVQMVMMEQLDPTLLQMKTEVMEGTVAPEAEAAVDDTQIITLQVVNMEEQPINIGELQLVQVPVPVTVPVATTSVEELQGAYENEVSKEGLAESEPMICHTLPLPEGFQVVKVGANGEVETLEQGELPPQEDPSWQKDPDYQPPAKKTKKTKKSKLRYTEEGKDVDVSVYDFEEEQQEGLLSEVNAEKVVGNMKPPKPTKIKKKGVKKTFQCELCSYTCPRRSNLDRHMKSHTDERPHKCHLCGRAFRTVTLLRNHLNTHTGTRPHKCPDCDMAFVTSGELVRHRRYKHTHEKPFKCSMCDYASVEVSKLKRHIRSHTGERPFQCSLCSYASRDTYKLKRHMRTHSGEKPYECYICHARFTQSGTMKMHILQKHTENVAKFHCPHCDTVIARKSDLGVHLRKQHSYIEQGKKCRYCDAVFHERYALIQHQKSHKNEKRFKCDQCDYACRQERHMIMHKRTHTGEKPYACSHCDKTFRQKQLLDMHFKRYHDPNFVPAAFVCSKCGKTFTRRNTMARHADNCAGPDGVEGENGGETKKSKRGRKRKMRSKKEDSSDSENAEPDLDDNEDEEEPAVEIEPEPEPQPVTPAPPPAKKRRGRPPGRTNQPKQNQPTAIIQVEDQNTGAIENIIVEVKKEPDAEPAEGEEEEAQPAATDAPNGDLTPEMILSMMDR
`AATTCCCC` has an E-score of 0.283.
For `TATCATAA`, the E-score was 0.306.
With `AAAAGTAT` the E-score was 0.293.
`CTAAATAA` gave an E-score of 0.289.
`AGTAGGGG` has an E-score of 0.333.
The E-score of `TCGCGCGA` is reported as 0.268.
With `AAATGAAA` the E-score was 0.262.
`ATGCGCCG` gave an E-score of 0.285.
With `ATGTTTTG` the E-score was 0.27.
`AAATAACA` has an E-score of 0.28.
`TCGCGCAA` gave an E-score of 0.34.
`CTCTTATA` gave an E-score of 0.325.
With `ATGATATA` the E-score was 0.255.
For `CATTTTTA`, the E-score was 0.306.
`CGGCGCAA` has an E-score of 0.308.
With `AATTTTAC` the E-score was 0.331.

Block 2 — method: RNA Bind-n-Seq; molecule type: RNA; medium: in vitro; tested at: 365 nM; reference: no-protein control; direction: higher = stronger binding
Target: RNA binding protein fox-1 homolog 2, RRM domain, GST-SBP tag (RBFOX2, Homo sapiens, UniProt O43251-10, residues 100-194)
Setting: natural RNA segment, single round, ends assumed
Residues (chain): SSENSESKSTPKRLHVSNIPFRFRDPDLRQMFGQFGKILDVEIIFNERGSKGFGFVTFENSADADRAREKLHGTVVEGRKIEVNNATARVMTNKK
For `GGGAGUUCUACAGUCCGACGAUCUUGGGCGCAGGGUGGGUGUUGGGGAGAUCCCUUCCAGGUUGGGGCAGGACUGGGUGGGAGGACCCCUAGGCUGCCCUCACCUUCUGCCUUCUCCAGCCGCCCUUCACUGCUGGAAUUCUCGGGUGCCAA`, “RBNS enrichment (R)” read 0.305.
`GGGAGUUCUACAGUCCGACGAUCCACAUAUAUUAUGCAUGUGGUGAAAAGAAUUGGCUAGAUAGGGGAUUUUUCUGAACACUGCAAAAAUAGAACGUAGCAAAAUGGCUUCAGUUAUCACUUUUGGGUGUCUGUGGAAUUCUCGGGUGCCAA` — result for “RBNS enrichment (R)”: 0.847.
Under “RBNS enrichment (R)”, `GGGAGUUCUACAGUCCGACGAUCAUAAACUUCAGAGGCCUCUGGCUCCCUCUAGUGACAAGUUUGUUCCAAGGGACAUACACUGAAACAUACAGCUGUCUAGGUUAUAAAUGUGUAGGUCUACAACUGCUAGUUGGAAUUCUCGGGUGCCAA` is recorded as 0.313.
`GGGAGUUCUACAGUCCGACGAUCUUUUCAUGUAUUCAUUUGCAGUCUUUGUAUUUAAAAAACAUUUACUGUUAUGUUUGUAUAAUAGAACAGUAAUCAUUUAUUAUAAUCUAGGCAAGUUGUAAAUAAAUUCAUGGAAUUCUCGGGUGCCAA` — result for “RBNS enrichment (R)”: 0.544.
Under “RBNS enrichment (R)”, `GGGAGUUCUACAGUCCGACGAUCUGACCCUGUUUCAGAAGCAGGAUAGUAUAAAAGCAUCAGCCUAAGAAUGGCACUCCCACUAACUAGCUAUGUAAUCUUGACCUCUUUGGGCUUUAGUUCCUCUCAUAAAAUGGAAUUCUCGGGUGCCAA` is recorded as 0.803.
Under “RBNS enrichment (R)”, `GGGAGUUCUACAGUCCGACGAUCUAAGAAAACUUGUGUGCUUUUCAAAAAGGCAGUGCUAAGCACAAGAUUUCAAGAAAGCCUCUUCUUGUUGCCUAGCUGAGUGGGAGAGUCAUUUUCCCCAGACACUACAUUGGAAUUCUCGGGUGCCAA` is recorded as 0.323.
`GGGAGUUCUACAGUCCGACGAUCGGAAGGGGCCACGUGGAUGGGCAAAGCUUGUCAAAGAUGCCCCCUCCAGGAGAGAGCCAGGAUGCCCAGAUGAACUGACUGAAGGAAAAGCAAGAAACAGUUUCUUGCUUUGGAAUUCUCGGGUGCCAA` — result for “RBNS enrichment (R)”: 0.459.
For `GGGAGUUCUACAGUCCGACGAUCACCCAGGAUGCUUCACUCUUGACUCCAUGCUCUUCCUUUUAUACCAUGUGGCUGUGAAUACAUACUAUGGGAUGGGAUUCAACCCUUCUAAGUAAAUCCUCAGUCUGGUCUGGAAUUCUCGGGUGCCAA`, “RBNS enrichment (R)” read 0.258.

Block 3 — target: CCNA1, cyclin fold, Cln2 fusion (human); method: yeast growth competition, sequencing; medium: yeast; setting: weak parent motif; reference: not given; direction: higher = stronger binding
Starting sequence: SAMHD1 docking peptide (human); ASKSRVQLFKDDP
Under “normalised enrichment score”, `S4C` is recorded as 1.19.
`Q7M` — result for “normalised enrichment score”: -0.191.
For `K10G`, “normalised enrichment score” read -0.0602.
For `S4Q`, “normalised enrichment score” read 0.185.
`K10F` — result for “normalised enrichment score”: -0.239.
`D11R` — result for “normalised enrichment score”: 0.709.
`L8D`: “normalised enrichment score” 0.237.
`R5M` — result for “normalised enrichment score”: -0.258.
`R5I` — result for “normalised enrichment score”: 0.281.
`D12T`: “normalised enrichment score” 0.237.
`S2P`: “normalised enrichment score” 0.415.
For `D11H`, “normalised enrichment score” read 0.0611.
`R5C` — result for “normalised enrichment score”: 0.302.
For `K10H`, “normalised enrichment score” read -0.00192.
`D12E`: “normalised enrichment score” 0.457.
`V6L` — result for “normalised enrichment score”: 0.504.
For `L8K`, “normalised enrichment score” read 0.482.

Other studies, line by line
`PhoQ, residues 284 288 289 292 302 303 QWQEDG` gave a fold induction of 1.45 (PhoP, residues 12 14 15 18 19 HHYTI (Escherichia coli, UniProt P23836); Sort-seq, measured: YFP reporter; E. coli; PhoQ-PhoP variant library, with: 10 µM Mg2+; reference: high Mg2+ state, higher = stronger signaling).
